# Measured values gathered from unrelated publications.
# Protocols differ between the studies behind these lines. ± marks the error that the study gave.
Compound,cell line,test,setting,scale,measurement,value
COc1cc(CNC(=O)C[C@H](C)CCC=C(C)C)ccc1OCc1cn(-c2ccc(Cl)c(Cl)c2)nn1,CAKI-1,SRB,"10 µM, 48 h",,growth percent,64%
CCCC(CCC)C(=O)[O][Pt]([NH2])([NH2])([Cl])([Cl])[O]C(=O)C(C)c1ccc(CC(C)C)cc1 (centres unmarked),PSN1,,"1 µM, 24 h",,depolarised mitochondria cells,30 to 40%
COc1cc(CNC(=O)C[C@H](C)CCC=C(C)C)ccc1OCc1cn(-c2ccc(F)cc2)nn1,HOP-92,SRB,"10 µM, 48 h",,growth percent,55.6%
COC(=O)CC[C@@H](NC(=O)[C@@H](Cc1ccc(OP(=O)(O)O)cc1)NC(=O)[C@@H](Cc1ccccc1)NC(=O)[C@@H](Cc1ccccc1)NC(=O)Cc1ccc2ccccc2c1)C(=O)OC,SAOS-2,MTT,"10 µM, with: zVAD-fmk 45 µM",,viability,25%
COc1cc(CNC(=O)C[C@H](C)CCC=C(C)C)ccc1OCc1cn(-c2ccccc2[N+](=O)[O-])nn1,HOP-92,SRB,"10 µM, 48 h",,growth percent,57.5%
CC(=O)Oc1ccccc1C(=O)O,hiPSC cardiac tissues 3D,active force,"15 min per concentration, paced at 1 Hz serum-free",,minimum effective concentration,> 300 µM
COc1ccc(C=C2SC(N3N=C(c4cccs4)CC3c3ccc(F)cc3)=NC2=O)cc1 (centres unmarked),T47D,PI flow cytometry,"concentration not given, 24 h",,cells in %G0-G1 phase,40.8%
COc1cc(CNC(=O)C[C@H](C)CCC=C(C)C)ccc1OCc1cn(-c2ccc(Br)cc2)nn1,TK-10,SRB,"10 µM, 48 h",,growth percent,109%
N=C(N/N=C/c1cc2ccccc2[nH]1)N/N=C/c1cc2ccccc2[nH]1,PANC-1,crystal violet,72 h,baseline: IC50 hTERT-HPNE over IC50 PANC-1,selectivity ratio,1.3
CC(=O)OC[C@H]1O[C@@H](Sc2sc(C(=O)c3ccc(C)cc3)c(N)c2-c2nc3ccccc3s2)[C@H](OC(C)=O)[C@@H](OC(C)=O)[C@H]1OC(C)=O,TK-10,SRB,"10 µM, 48 h",baseline: untreated,growth,125%
COc1ccc(C2=Nn3c(NN=C4C(=O)N(Cc5ccccc5)c5ccc(Cl)cc54)nnc3SC2)cc1,SK-MEL-5,"cell growth or viability, SRB",10 µM,,inhibition,17%
CCN(CC)C1CCN(Cc2cc(C#CCNC(=O)OC(C)(C)C)cc(I)c2O)CC1,NUGC-3 p53 Y220C,caspase 3/7 apoptosis,6 h,,onset concentration,100 µM
O=C1OCC2=C1C(c1cccc(Br)c1)C1=C(N2)C(=O)c2ccccc2C1=O (centres unmarked),SK-LU-1 cells,PI flow cytometry,"0.32 µM, 24 h",,cells in G0/G1 phase,0.03%
O=Cc1c(O)ccc2ccccc12,HUVEC,"RNA sequencing, item: RRM2","75 µM, 24 h",baseline: DMSO,log2 fold change,-4.29
O=C1c2c(O)cc(O)cc2-c2c(-c3ccc(O)cc3)oc3cc(O)cc1c23,LCC2 CHIP shRNA knockdown,label-free MS proteomics,"10 µM, 24 h",,downregulated protein count,297
COc1cc(CNC(=O)C[C@H](C)CCC=C(C)C)ccc1OCc1cn(-c2ccccc2Cl)nn1,SN12C,SRB,"10 µM, 48 h",,growth percent,69.6%
CC/C=C\C/C=C\C/C=C\C/C=C\C/C=C\C/C=C\CCC(=O)Nc1ccn(C2OC(CO)C(O)C2(F)F)c(=O)n1 (centres unmarked),NCI-H322M,"cell growth or viability, SRB",,,GI50,1180 nM
COc1ccc(CN2C(=O)C(=O)c3cc(NC(C)=O)ccc32)cc1,K562,western blot,"1 to 10 µM, 24 h",,Bax protein level,increased
CO[C@H]1N(OC)c2ccccc2[C@@]12CN=C(Nc1cc(C(F)(F)F)cc(C(F)(F)F)c1)S2 (relative stereo),HCT-116,PI flow cytometry,"40 µM, 48 h",,G2/M phase cells,6.22 ± 1.45%
CC(=C(c1ccc(O)cc1)c1ccc(Cl)cc1)c1ccc(Cl)cc1,SN12C,cell growth or viability,,,GI50,510 nM

# Excerpt of the above:
Compound,cell line,test,setting,scale,measurement,value
N=C(N/N=C/c1cc2ccccc2[nH]1)N/N=C/c1cc2ccccc2[nH]1,PANC-1,crystal violet,72 h,baseline: IC50 hTERT-HPNE over IC50 PANC-1,selectivity ratio,1.3
